Results collected from several papers.
Protocols differ between the studies behind these lines. ± marks the error that the study gave. Values after ≈ are worked out from the molar mass of the structure shown.

With `O=C1C=Cc2ccccc2C1=O` the remaining phosphorylation was 41% (A-431; PTP activity, single-cell capillary electrophoresis; 50 µM, 60 s, median).
`COc1cc(/C=C/C(=O)N2CCC=CC2=O)cc(OC)c1OC` — result for “mRNA level decrease”: 20 to 68% (MDA-MB-468; RT-qPCR, measured: Bcl-2, Bcl-xL, survivin, XIAP, cIAP; concentration not given, 6 to 8 h).
For `RRRRRRRRGGTTLFF`, cell proliferation read “decreased” (Jurkat; peptide; concentration not given, spontaneous).
`COC(=O)C1=CO[C@@H](O)[C@@H]2C(CO)=CC[C@H]12` gave a viability of 57.8 ± 0.7% (SK-N-SH; neuroprotection, MTT; 0.3 µM, 24 h, together with: 250 µM H2O2).
The selectivity ratio of `N.N.[Cl][Pt][Cl]` is reported as 70 (human PBMC; cytotoxicity; baseline: PBMC over Jurkat toxicity).
`C/C1=C/C(=O)O[C@@H]2C[C@@H](CC[C@H](C)/C=C\C=C\CC1)O[C@@](O)([C@@H]1CSC(=O)N1)C2` — result for macropinocytic uptake: “decreased” (LNCaP expressing wild-type Abi1; flow cytometry; 0.2 µM, 2 h, together with: Alexa Fluor hydrazide 25 µM, no PDGF).
For `antisauvagine-30`, “UCN-induced CREB phosphorylation” read “no effect” (rat hippocampal pyramidal neurons; measured: pCREB Ser133; 100 nM, 30 min pretreatment, together with: urocortin 40 nM, 15 min).
For `NC12CC3CC(CC(C3)C1)C2`, TNF-alpha expression read “increased” (dendritic cells; flow cytometry; 10 µg/mL, 24 h; baseline: untreated cells).
`CC(C)c1cc2c(c(O)c1O)[C@@]1(C(=O)O)CCCC(C)(C)[C@@H]1CC2` has an ID50 of 6.14 ± 0.575 µg/mL (≈ 18.5 µM) (mES-D3 cell; cardiomyocyte differentiation, RT-PCR, measured: MHC; 240 h).
`CC[C@H](C)[C@H](NC(=O)[C@@H](NC(=O)[C@@H](N)C(C)C)C(C)C)C(=O)N[C@@H](C)C(=O)O` — result for cell death: “no effect” (PC-12 (differentiated); MTT and LDH; concentration not given, MTT 24 h, LDH 48 h, together with: staurosporine 0.2 µM).
The GI50 of `N.N.[Cl][Pt][Cl]` is reported as 8000 ± 2500 nM (PC-3; trypan blue; 48 h).
For `CNC(=O)c1ccccc1Oc1nc(Nc2cc(OC)c(OC)c(OC)c2)ncc1Br`, the inhibitory concentration was roughly 5 µM (HEK293T overexpressing ULK1 and Vps34; measured: Vps34 Ser249 phosphorylation; 1 h).
For `leucinostatin B2`, the GI50 was greater than 100 nM (MDA-MB-231 resistant; sulforhodamine B; 48 h).
`CN1C(=CC=CC=CC2=[N+](CCCCCC(=O)NCCCC[C@H](NC(=O)[C@H](CCCCNC(=O)COCCOCCOCCNC(=O)[C@H](Cc3ccccc3)NC(=O)[C@H](CCCNC(=N)N)NC(=O)[C@@H]3CCCN3C(=O)[C@H](CC(N)=O)NC(=O)[C@@H]3CCCN3C(=O)[C@H](CO)NC(=O)[C@@H](N)CCCCN)NC(=O)COCCOCCOCCNC(=O)[C@H](CCC(=O)O)NC(=O)[C@H](CCCNC(=N)N)NC(=O)[C@@H]3CCCN3C(=O)[C@H](CCCCN)NC(=O)[C@H](Cc3c[nH]cn3)NC(=O)[C@H](CCCNC(=N)N)NC(=O)[C@@H](N)CCC(N)=O)C(N)=O)c3ccc4ccccc4c3C2(C)C)C(C)(C)c2c1ccc1ccccc21`: “association rate constant” 0.22 min⁻¹ (OE33; flow cytometry; 1 µM, 4 °C).
Under “acetylated RBBP4 level”, `C/C=C1\NC(=O)[C@H]2CSSCC/C=C/[C@H](CC(=O)N[C@H](C(C)C)C(=O)N2)OC(=O)[C@H](C(C)C)NC1=O` is recorded as 2 fold (SU-DHL10; acetyl-lysine IP mass spectrometry, measured: RBBP4/RBBP7 acetylation; concentration not given; baseline: untreated).
`C[C@H]1CNCCc2ccc(Cl)cc21` gave an AUC extrapolated of 7.14 ± 0.75% (male Sprague-Dawley rat, plasma; subcutaneous, pimavanserin 0.5 + lorcaserin 0.5 mg/kg, pimavanserin 15 min earlier).
`YPKPVYIPQPRPPHPRL` has an SAMP-Dep slope of -15 M⁻¹ min⁻¹ (Escherichia coli T7 Express LysY/Iq; bacterial growth, intracellular expression, IPTG induction; peptide; 7.2 h, 37 °C; more negative = more potent).
With `C[C@@H]1C[C@H]2[C@@H]3CCC4=CC(=O)C=C[C@]4(C)[C@@]3(F)[C@@H](O)C[C@]2(C)[C@@]1(O)C(=O)CO` the inhibition was greater than 80% (mouse splenocytes; IL-5 production, ELISA; 0.005 µM, together with: ovalbumin; baseline: OVA-stimulated control).
With `amyloid beta-42 Met35-sulfone` the viability decrease was 43 ± 2% (rat primary hippocampal neurons; MTT; 10 µM, 48 h; baseline: medium control).
`CN[C@@](C)(C[18F])C(=O)O` has a tracer uptake of 3.6 %ID/g (DU-145 tumour model; host not given, kidney; 2 h, tumour-bearing).
`leucinostatin A2` gave a GI50 of greater than 100 nM (MDA-MB-231 resistant; sulforhodamine B; 48 h).
The fold change of `NNC(=O)Cn1c2ccccc2c2cn[nH]c(=O)c21` is reported as 3.39 (MCF7; RT-PCR, measured: Bax; 5 µM, 48 h, normalised to β-actin; baseline: untreated).
With `leucinostatin D` the GI50 was 1.4 ± 0.2 nM (SUM185PE; sulforhodamine B; 48 h, LAR subtype TNBC).
`CC(C)c1ccc2c(c1)CC[C@H]1[C@](C)(CN)CCC[C@]21C` gave an IC50 of 4830 nM (WM35; cell growth or viability, MTS; 48 h).
For `COc1ccc([N+](=O)[O-])c(S(=O)(=O)c2ccc(Cl)cc2)n1`, the GI50 was 6310 nM (NCI60 cell panel; cell growth; panel mean).
`COc1ccc(CCCOC(Cn2ccnc2)c2ccc(OC)cc2)cc1` (stereo not shown) — result for “Ca2+ transient amplitude”: 12.4 ± 8.9% (U2OS; NAADP-evoked Ca2+ release; 10 µM, 10 min pretreatment, together with: NAADP 100 nM microinjected; baseline: NAADP alone).
`CNC(=O)c1ccc(N2C(=S)N(c3ccc(C#N)c(C(F)(F)F)c3)C(=O)[C@]23CCOC3)cc1F` gave a Ki of 20 nM (LNCaP; PSA expression, antagonist; 1 day, charcoal-stripped serum 3 days, together with: 1 nM DHT).
Under “Ca2+ transient amplitude”, `OCc1cc(C(O)CNCCCCCCOCCCCc2ccccc2)ccc1O` (stereo not shown) is recorded as 26.7 ± 7.2% (U2OS; NAADP-evoked Ca2+ release; 10 µM, 10 min pretreatment, together with: NAADP 100 nM microinjected; baseline: NAADP alone).
The therapeutic window of `C[C@H]1O[C@@H](O[C@H]2[C@@H](O)C[C@H](O[C@H]3[C@@H](O)C[C@H](O[C@H]4CC[C@@]5(C)[C@H](CC[C@@H]6[C@@H]5C[C@@H](O)[C@]5(C)[C@@H](C7=CC(=O)OC7)CC[C@]65O)C4)O[C@@H]3C)O[C@@H]2C)C[C@H](O)[C@@H]1O` is reported as 0.449 (NIH3T3 in HEY/NIH microtissues; fibroblast toxicity; 168 h, chronic toxicity, unit not given; baseline: AC50 ATP over AC50 NanoLUC, day 7).
With `O=c1c(O)c(-c2ccc(O)c(O)c2)oc2c1ccc1ccccc12` the neuroprotection was 86% (mouse cortical neurons; 100 nM, together with: glutamate).
`leucinostatin F` gave a GI50 of greater than 100 nM (MDA-MB-231 resistant; sulforhodamine B; 48 h).
Under monocyte adhesion, `O=C(Nc1ccc([N+](=O)[O-])cc1O)Nc1ccccc1Br` is recorded as “no effect” (human classical CD14++CD16- monocytes; flow chamber; 100 nM, 15 min pretreatment, together with: TNF-activated HUVEC).
For `CN(C)CCCn1cc(C2=C(c3c[nH]c4ccccc34)C(=O)NC2=O)c2ccccc21`, the firing duration was 4.33 ± 0.82 min (rat lamina I NK1R neurons; spinal cord slices; concentration not given, together with: substance P).
`Cc1ccc(NS(=O)(=O)c2ccc3c(c2)C2OCCC2C(c2ccc(C(=O)C(C)C)cc2)N3)cc1C` (stereo not shown): “time to caspase and PARP cleavage” 8 h (EU-1; western blot; 1 µM).
`CC(C)=CCC/C(C)=C/Cc1c(O)cc(/C=C/c2cc(O)c3c(c2)C[C@@H]2C(C)(C)[C@H](O)[C@H](O)C[C@@]2(C)O3)cc1O` — result for “antiproliferative activity change”: “no effect” (CHO NPC1-/- (M12); concentration not given; baseline: wild-type CHO).
`CC1(C)C(=O)N(CCN2CCC(C(=O)c3ccc(F)cc3)CC2)c2ccccc21.Cl`: “Ca2+ transient amplitude” 42.9 ± 5.1% (U2OS; NAADP-evoked Ca2+ release; 10 µM, 10 min pretreatment, together with: NAADP 100 nM microinjected; baseline: NAADP alone).
`CNC(=O)[C@H](Cc1c[nH]c2ccccc12)NC(=O)[C@@H](CC(=O)NO)CC(C)C` gave a therapeutic window of 3.01 (NIH3T3 in SKOV/NIH microtissues; fibroblast toxicity; chronic toxicity, unit not given; baseline: AC50 ATP over AC50 NanoLUC, day 7).
For `astressin`, “UCN-induced CREB phosphorylation” read “inhibited” (rat hippocampal pyramidal neurons; antagonist, measured: pCREB Ser133; 100 nM, 30 min pretreatment, together with: urocortin 40 nM, 15 min).
Under TNF-α production, `CC[C@H](C)[C@H](NC(=O)[C@H](CCCCN)NC(=O)[C@@H](NC(=O)[C@H](CCC(N)=O)NC(=O)[C@H](CCCNC(=N)N)NC(=O)[C@@H](N)CC(=O)O)[C@@H](C)CC)C(=O)N[C@@H](Cc1c[nH]c2ccccc12)C(=O)N[C@@H](Cc1ccccc1)C(=O)N[C@@H](CCC(N)=O)C(=O)N[C@@H](CC(N)=O)C(=O)N[C@@H](CCCNC(=N)N)C(=O)N[C@@H](CCCNC(=N)N)C(=O)N[C@@H](CCSC)C(=O)N[C@@H](CCCCN)C(=O)N[C@@H](Cc1c[nH]c2ccccc12)C(=O)N[C@@H](CCCCN)C(=O)N[C@@H](CCCCN)C(=O)N[C@H](C(=O)N[C@@H](C)C(=O)N[C@@H](CC(C)C)C(=O)N[C@@H](CC(=O)O)C(=O)N[C@@H](Cc1c[nH]c2ccccc12)C(=O)N[C@@H](CO)C(=O)N[C@@H](Cc1c[nH]c2ccccc12)C(=O)N[C@@H](CC(C)C)C(=O)N[C@@H](CCC(N)=O)C(=O)N[C@H](C(=O)N[C@@H](CCC(=O)O)C(=O)O)[C@@H](C)O)[C@@H](C)O` is recorded as “inhibited” (human PBMC; inhibitor; concentration not given, 2 h, together with: LPS 10 ng/mL).
The viability decrease of `[Met(O)35]Aβ42` is reported as 16 ± 2% (rat primary hippocampal neurons; LDH release; 10 µM, 48 h; baseline: medium control).

Excerpt of the above:
`CN1C(=CC=CC=CC2=[N+](CCCCCC(=O)NCCCC[C@H](NC(=O)[C@H](CCCCNC(=O)COCCOCCOCCNC(=O)[C@H](Cc3ccccc3)NC(=O)[C@H](CCCNC(=N)N)NC(=O)[C@@H]3CCCN3C(=O)[C@H](CC(N)=O)NC(=O)[C@@H]3CCCN3C(=O)[C@H](CO)NC(=O)[C@@H](N)CCCCN)NC(=O)COCCOCCOCCNC(=O)[C@H](CCC(=O)O)NC(=O)[C@H](CCCNC(=N)N)NC(=O)[C@@H]3CCCN3C(=O)[C@H](CCCCN)NC(=O)[C@H](Cc3c[nH]cn3)NC(=O)[C@H](CCCNC(=N)N)NC(=O)[C@@H](N)CCC(N)=O)C(N)=O)c3ccc4ccccc4c3C2(C)C)C(C)(C)c2c1ccc1ccccc21`: “association rate constant” 0.22 min⁻¹ (OE33; flow cytometry; 1 µM, 4 °C).
Under “acetylated RBBP4 level”, `C/C=C1\NC(=O)[C@H]2CSSCC/C=C/[C@H](CC(=O)N[C@H](C(C)C)C(=O)N2)OC(=O)[C@H](C(C)C)NC1=O` is recorded as 2 fold (SU-DHL10; acetyl-lysine IP mass spectrometry, measured: RBBP4/RBBP7 acetylation; concentration not given; baseline: untreated).
`C[C@H]1CNCCc2ccc(Cl)cc21` gave an AUC extrapolated of 7.14 ± 0.75% (male Sprague-Dawley rat, plasma; subcutaneous, pimavanserin 0.5 + lorcaserin 0.5 mg/kg, pimavanserin 15 min earlier).
`YPKPVYIPQPRPPHPRL` has an SAMP-Dep slope of -15 M⁻¹ min⁻¹ (Escherichia coli T7 Express LysY/Iq; bacterial growth, intracellular expression, IPTG induction; peptide; 7.2 h, 37 °C; more negative = more potent).
